# Results of several laboratories.
# Compare with care: the assays were run in different laboratories.
# Method: steady-state kinetics
# B1: Lxyl-p1-1 A72T/V91S (Lentinula edodes, UniProt G8GLN9); chain YFSGLGLGSERSIFRRDLNSTGDESNSTQWPAPLANGGKSWASAFKKAKSTVTEMTVEELANITSGVIGLCSGVTGAVTRLGIPELCLQDGPIGPRGVHGSSQFPAGLTVAATWDRTLMYARARGMGQEFHDQGVHIALAPVTGGPLGRTPLNGRGWEGTFADPYACGEASYQSVKGLTDAGVATVSKHWIAYEQETSRNLYIEFDGVSQADIQLPISSNVDDLTMHELYMWSFAEAVRAGTNHIMCSYNRINNTHSCNNAKGLNQLLKTELNFQGGVVSDWGGQWDSVLSAENGLDVGMPGEGFLGELGDFWGTTLADLINNGTVSEDLVRDKVVRLLTGYYYLGQDINPPPPFVYNTIGAPTLNATSGYRNVRKPGTAELIKEIGSASVTLLKNTGSLPLKHPQRIAVLGNDATYNVLGPNACGLANSACDIDNLNGTLTTGGGSGSALSPYTITPLEALQKRAIEDNAEIAAVVANSNTTTGAEDAIAALLPDADVTFVFLNRYSEEGADAPDFSLGGDGDNLMDLAVTYSSNVVVVIHTTGVVDIEKWADNPNVTAILVAYLPGQEAGNSLVPVLYGDVAPSGKLPWTWGKSIDDYVPNGVVYTDAYSPQSNFTEGVFIDYRWFDKMGITPRYEFGFGLSYTTFTYSNLIVDHGRWAKDYSSVMETAEPFAEWDGTNSLYDVIFTVFATITNTGNLTGSEVAQLYISIPGDNQPVRQLRGFDKIKDLPVGDSAVVTFPIRRKDVSSWSVVDQLWYVPNGDFLISVGGSSRDLPLNTTWTP
# B2: enzyme D392A (Acetivibrio thermocellus, UniProt A3DJ38); chain MKLTIPELSLVVLIGSSGSGKSTFAKKHFKPTEVISSDFCRGLVSDDENDQTVTGAAFDVLHYIVSKRLQLGKLTVVDATNVQESARKPLIEIAKDYHCFPVAVVFNLPEKVCQERNKNRTDRQVEEYVIRKHTQQLKKSIKGLQREGFRYVYILNSPEEVEEVVFERQPLWNNKKDEHGPFDIIGDIHGCYDELKMLLEKLGYLIEEVEGGVGSGKYRVTHPEGRKVLFLGDLVDRGPKITEVLKLVMGMVKSGIALCVPGNHDVKLLRKLNGRDVQITHGLDRTLEQLAKEPQEFIEEVKAFIDGLVSHYVLDDGKLVVAHAGMKEEFQGRGSGKVREFALYGETTGETDEYGLPVRYDWASDYRGKALVVYGHTPQAEVLKVNNTINIATGCVFGGKLTAYRYPEREIVDVKALKTYYEPAKPFLPKEDMAERFEARTDNDILDINDVLGKKIITTRLMSSITIHEENSIAALEVMSRFAADPHWLIYLPPTMSPCETSKKEGMLEHPIEAFEYFRTRGVGKVVCEQKHMGSRAVVIVCKDSQVAEKRFGVLDGTAGICYTRTGRHFFDDMQLEAELIDRVRKVLDKSGFWGDFNTDWVCLDCELMPWSAKAQKLLEEQYSAVGISGRVVLDEAVKLLKQASLNKTVSFDVSRQTSGKNADINELLQRFTERSEMMQKYVEAYRKYCWPVNSIDDLKLAPFHILATEGKVHSDKNHIWHMDTIAKYCTQDDSLIMATNHILVDVTDAESVDKGIKWWEDLTASGGEGMVVKPYDFIVKNGRELLQPAVKCRGREYLRIIYGPEYTMDENIERLRNRAVGKKRSLALREFSLGMEALERFVRNEPLYRVHECVFGVLALESEPVDPRL
# B3: tmcA (Escherichia coli, UniProt P76562); chain MAELTALHTLTAQMKREGIRRLLVLSGEEGWCFEHTLKLRDALPGDWLWISPRPDAENHCSPSALQTLLGREFRHAVFDARHGFDAAAFAALSGTLKAGSWLVLLLPVWEEWENQPDADSLRWSDCPDPIATPHFVQHLKRVLTADNEAILWRQNQPFSLAHFTPRTDWYPATGAPQPEQQQLLKQLMTMPPGVAAVTAARGRGKSALAGQLISRIAGRAIVTAPAKASTDVLAQFAGEKFRFIAPDALLASDEQADWLVVDEAAAIPAPLLHQLVSRFPRTLLTTTVQGYEGTGRGFLLKFCARFPHLHRFELQQPIRWAQGCPLEKMVSEALVFDDENFTHTPQGNIVISAFEQTLWQSDPETPLKVYQLLSGAHYRTSPLDLRRMMDAPGQHFLQAAGENEIAGALWLVDEGGLSQQLSQAVWAGFRRPRGNLVAQSLAAHGNNPLAATLRGRRVSRIAVHPARQREGTGRQLIAGALQYTQDLDYLSVSFGYTGELWRFWQRCGFVLVRMGNHREASSGCYTAMALLPMSDAGKQLAEREHYRLRRDAQALAQWNGETLPVDPLNDAVLSDDDWLELAGFAFAHRPLLTSLGCLLRLLQTSELALPALRGRLQKNASDAQLCTTLKLSGRKMLLVRQREEAAQALFALNDVRTERLRDRITQWQLFH
# B4: enzyme (Mycolicibacterium smegmatis, UniProt A0QWT3); chain MSKGRLFTSESVTEGHPDKICDAISDSVLDALLEQDPKSRVAVETLVTTGQVHVAGEVTTTAYADIPKIVRDRILDIGYDSSTKGFDGASCGVNVAIGAQSPDIAQGVDTAHETRVEGKADPLDLQGAGDQGLMFGYAIGDTPELMPLPIALAHRLARRLTEVRKNGVLDYLRPDGKTQVTIQYDGTTPVRLDTVVLSTQHADGIDLEGTLTPDIREKVVNTVLADLGHETLDTSDYRLLVNPTGKFVLGGPMGDAGLTGRKIIVDTYGGWARHGGGAFSGKDPSKVDRSAAYAMRWVAKNVVAAGLAERVEVQVAYAIGKAAPVGLFVETFGSETVDPAKIEKAIGEVFDLRPAAIVRDLDLLRPIYAPTAAYGHFGRTDIELPWEQTNKVDDLKSAI
# B5: enzyme E217L/L163H/N249W (Thermobifida fusca, UniProt Q47RK4); chain MTDVYILDAVRTPFGRYGGALSGIRPDDLAAHVLRALAERSPGLDPAAVDDVFFGDANGAGEDNRNVARMAALLAGWPTSVPGVTLNRLCGSGMESVIAANRAIAVGDASLAVAGGVESMSRAPWVLPKPAQGFPTGHETLYSTTLGWRMVNPAMPEQWTVSHGESTEQVAATYGISRAEQDAFALRSHERAARAWAEGVFDAEITQIPGAELERDLSIRETSAEKLAALKPAFRPDGTITAGNASPLWDGAAALLIGDAAAAERVGREPLARIVSRGVAAVDPDVFGIGPVQAAEIALRRAGIGWDDLSVVELNEAFAAQSLACLKLWPDLDPEIVNPNGGAIAIGHPLGASGARIVGTLAHELHRRGGGWGLAAICIGVGQGLAVVLHR
# B6: nitrilase (Rhodococcus rhodochrous, UniProt A4LA85); chain MVEYTNTFKVAAVQAQPVWFDAAKTVDKTVSIIAEAARNGCELVAFPEVFIPGYPYHIWVDSPLAGMAKFAVRYHENSLTMDSPHVQRLLDAARDHNIAVVVGISERDGGSLYMTQLIIDADGQLVARRRKLKPTHVERSVYGEGNGSDISVYDMPFARLGALNCWEHFQTLTKYAMYSMHEQVHVASWPGMSLYQPEVPAFGVDAQLTATRMYALEGQTFVVCTTQVVTPEAHEFFCENEEQRKLIGRGGGFARIIGPDGRDLATPLAEDEEGILYADIDLSAITLAKQAADPVGHYSRPDVLSLNFNQRRTTPVNTPLSTIHATHTFVPQFGALDGVRELNGADEQRALPSTHSDETDRATASI
# UniProt P22303, sequence (whole entry, looked up): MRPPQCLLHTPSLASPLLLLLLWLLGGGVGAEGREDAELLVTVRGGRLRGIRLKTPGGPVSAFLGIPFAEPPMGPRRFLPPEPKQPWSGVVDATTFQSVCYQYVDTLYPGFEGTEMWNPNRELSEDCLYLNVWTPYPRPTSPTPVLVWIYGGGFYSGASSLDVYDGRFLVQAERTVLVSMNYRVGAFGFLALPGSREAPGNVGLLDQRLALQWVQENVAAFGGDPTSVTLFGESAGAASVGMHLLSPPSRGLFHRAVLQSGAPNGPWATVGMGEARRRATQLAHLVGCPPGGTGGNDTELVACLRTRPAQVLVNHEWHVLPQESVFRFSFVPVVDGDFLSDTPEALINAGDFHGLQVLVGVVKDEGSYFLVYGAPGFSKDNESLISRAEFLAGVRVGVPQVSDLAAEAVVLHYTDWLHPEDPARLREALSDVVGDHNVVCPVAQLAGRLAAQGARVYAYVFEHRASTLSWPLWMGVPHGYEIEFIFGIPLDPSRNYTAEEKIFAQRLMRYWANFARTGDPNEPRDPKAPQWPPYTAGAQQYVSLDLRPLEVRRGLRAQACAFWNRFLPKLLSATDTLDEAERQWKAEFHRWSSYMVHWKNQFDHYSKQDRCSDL
# UniProt D2D3B2, sequence (whole entry, looked up): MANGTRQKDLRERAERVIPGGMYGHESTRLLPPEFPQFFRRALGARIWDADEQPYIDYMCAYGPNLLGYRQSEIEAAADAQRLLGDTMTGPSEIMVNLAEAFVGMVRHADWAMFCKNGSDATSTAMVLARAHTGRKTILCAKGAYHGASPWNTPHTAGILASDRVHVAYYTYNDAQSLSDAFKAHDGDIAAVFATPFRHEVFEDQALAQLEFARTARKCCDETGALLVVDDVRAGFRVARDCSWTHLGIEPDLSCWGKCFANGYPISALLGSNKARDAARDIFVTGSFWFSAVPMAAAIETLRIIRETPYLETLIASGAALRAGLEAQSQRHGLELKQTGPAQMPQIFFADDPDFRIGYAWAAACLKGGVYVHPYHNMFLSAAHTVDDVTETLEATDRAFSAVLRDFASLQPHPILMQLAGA
Substance,substrate,pH,temperature,setting,together with,Km
B1 (Lxyl-p1-1 A72T/V91S),[H][C@]12[C@H](OC(=O)c3ccccc3)[C@]3(O)C[C@H](OC(=O)[C@H](O)[C@@H](NC(=O)c4ccccc4)c4ccccc4)C(C)=C([C@@H](O)C(=O)[C@]1(C)[C@@H](O[C@@H]1OC[C@@H](O)[C@H](O)[C@H]1O)C[C@@]1([H])OC[C@@]21OC(C)=O)C3(C)C,,,,,300 µM
B2 (enzyme D392A),Nc1ncnc2c1ncn2[C@@H]1O[C@H](CO)[C@H]2OP(=O)(O)O[C@H]21,pH 7.5,45 °C,,,100000 µM
B3 (tmcA),Nc1ncnc2c1ncn2[C@@H]1O[C@H](COP(=O)(O)OP(=O)(O)OP(=O)(O)O)[C@@H](O)[C@H]1O,pH 7.8,,"10 mM KCl, no tRNA, no acetyl-CoA",MgCl2 10 mM,2.93 µM
"ACHE (Homo sapiens, UniProt P22303)",CC(=O)SCC[N+](C)(C)C,pH 7,25 °C,apparent,,57 µM
B4 (enzyme),Nc1ncnc2c1ncn2[C@@H]1O[C@H](COP(=O)(O)OP(=O)(O)OP(=O)(O)O)[C@@H](O)[C@H]1O,,,,,76.2 µM
B5 (enzyme E217L/L163H/N249W),CC(C)(COP(=O)(O)OP(=O)(O)OC[C@H]1O[C@@H](n2cnc3c(N)ncnc32)[C@H](O)[C@@H]1OP(=O)(O)O)[C@@H](O)C(=O)NCCC(=O)NCCSC(=O)CC(=O)O,pH 7.4,37 °C,,,2570 µM
B6 (nitrilase),N#CCCCC#N,pH 7.5,25 °C,,,1240 µM
"enzyme (Sphingopyxis macrogoltabida, UniProt D2D3B2)",CCCC[C@@H](C)[C@@H](O)[C@@H](O)C[C@@H](C)C[C@H](O)CCCC[C@@H](O)C[C@H](O)[C@H](C)N,pH 8,35 °C,apparent,,1.1 µM

# Excerpt of the above:
Substance,substrate,pH,temperature,setting,together with,Km
"enzyme (Sphingopyxis macrogoltabida, UniProt D2D3B2)",CCCC[C@@H](C)[C@@H](O)[C@@H](O)C[C@@H](C)C[C@H](O)CCCC[C@@H](O)C[C@H](O)[C@H](C)N,pH 8,35 °C,apparent,,1.1 µM
